Published values of several laboratories.
Compare with care: the assays were run in different laboratories. Numbers after ± are the reported error.
gyrA/gyrB: DNA gyrase (gyrA/gyrB, Escherichia coli, UniProt P0AES4+P0AES6)
Urease: Urease (Canavalia ensiformis, UniProt P07374)
MCL1: Induced myeloid leukemia cell differentiation protein Mcl-1 (MCL1, Homo sapiens, UniProt Q07820)

For `CC(C)[C@H](NC(=O)[C@@H]1CCCN1C(=O)[C@H](CCCCN)NC(=O)[C@@H]1CCCN1C(=O)[C@H](CO)NC(=O)[C@H](C)NC(=O)[C@@H](N)CCC(=O)O)C(=O)O`, the IC50 was 87700 nM (Angiotensin-converting enzyme (ACE, Oryctolagus cuniculus, UniProt P12822); enzyme activity, inhibitor, absorbance; pH 8.3).
`C[C@H](CCC(=O)N[C@H](CC(c1c[nH]c2ccc(Cl)cc12)c1c[nH]c2ccc(Cl)cc12)C(=O)O)[C@H]1CC[C@H]2[C@@H]3CC[C@@H]4C[C@H](O)CC[C@]4(C)[C@H]3CC[C@]12C` has an IC50 of 6600 ± 200 nM (Beta-galactoside alpha-2,6-sialyltransferase 1 (ST6GAL1, Homo sapiens, UniProt P15907); enzyme activity, UPLC).
The IC50 of `Nc1nc2c(c(=O)[nH]1)[n+](Cc1ccc(S(=O)(=O)F)cc1)cn2[C@@H]1O[C@H](COP(=O)(O)O)[C@@H](O)[C@H]1O` is reported as 16200 nM (7-methylguanosine phosphate-specific 5'-nucleotidase (NT5C3B, Homo sapiens, UniProt Q969T7); enzyme activity, inhibitor, absorbance; pH 7.5).
For `N#Cc1nccc(N2CCNCC2)n1`, the IC50 was 91900 nM (Phosphatidylinositol 3,4,5-trisphosphate 5-phosphatase 1, Ptase-C2 domains (INPP5D, Homo sapiens, UniProt Q92835); enzyme activity, inhibitor).
With `COc1ccc(F)cc1S(=O)(=O)Nc1cnc2c(c1)C(=O)NCCO2` the IC50 was greater than 100000 nM (Cytochrome P450 2B6 (CYP2B6, Homo sapiens, UniProt P20813); enzyme activity, inhibitor; human, liver microsomes; with preincubation).
For `CCCC[C@H](NC(=O)[C@H](C)NC(=O)[C@H](CCC(=O)O)NC(=O)[C@H](Cc1ccccc1)NC[C@H](CC(C)C)NC(=O)[C@H](Cc1ccccc1)NC(=O)[C@@H](N)CCCNC(=N)N)C(=O)O`, the IC50 was greater than 1000 nM (Gag-Pol polyprotein, protease (gag-pol, Human immunodeficiency virus 1, UniProt P12497); enzyme activity, inhibitor, FRET; NL4-3 wild type).
`CC[C@H](C)[C@H](NC(=O)[C@H](CCCNC(=N)N)NC(=O)[C@H](CCCNC(=N)N)NC(=O)[C@@H]1CCCN1C(=O)[C@@H]1CCCN1C(=O)[C@H](CCCNC(=N)N)NC(=O)[C@@H]1CCCN1C(=O)[C@H](CCCNC(=N)N)NC(=O)[C@@H]1CCCN1C(=O)[C@H](CC(C)C)NC(=O)[C@H](Cc1ccc(O)cc1)NC(=O)[C@@H]1CCCN1C(=O)[C@@H]1CCCN1C(=O)[C@H](CCCCN)NC(=O)[C@H](CC(=O)O)NC(=O)[C@@H](N)C(C)C)C(=O)N[C@@H](Cc1ccc(O)cc1)C(=O)N[C@@H](CC(N)=O)C(=O)N[C@@H](CCCNC(=N)N)C(=O)N1CCN(c2cc3c(cc2F)c(=O)c(C(N)=O)cn3C2CC2)CC1` gave an IC50 of 2500 nM (gyrA/gyrB; enzyme activity, inhibitor).
For `NC(=O)COC(=O)c1cc(Br)ccc1F`, the IC50 was 320 nM (Urease; enzyme activity, inhibitor, absorbance).
`N#C[C@@]1(c2ccc3c(N)ncnn23)O[C@H](COP(=O)(O)OP(=O)(O)OP(=O)(O)O)[C@@H](O)[C@H]1O` has an IC50 of greater than 200000 nM (DNA-directed RNA polymerase II subunit RPB1/DNA-directed RNA polymerase II subunit RPB2 (Homo sapiens, UniProt P24928+P30876); enzyme activity, inhibitor).
`CC[C@H](C)[C@@H]1NC(=O)[C@H](CCCNC(=N)N)NC(=O)[C@H](CCCNC(=N)N)NC(=O)[C@H](CC(C)C)NC(=O)[C@@H](NC(=O)[C@H](C)NC(=O)[C@H](C)NC(C)=O)CSCc2ccc3c(ccc4cc(ccc43)CSC[C@@H](C(=O)N[C@H](C(=O)N[C@@H](CC(N)=O)C(=O)N[C@@H](CC(C)C)C(=O)N[C@@H](CCCNC(=N)N)C(=O)N[C@@H](CCC(N)=O)C(=O)N[C@@H](CCCCN)C(=O)N[C@@H](CC(C)C)C(=O)N[C@@H](CC(C)C)C(=O)N[C@@H](CC(N)=O)C(N)=O)C(C)C)NC(=O)[C@H](CC(=O)O)NC(=O)CNC1=O)c2` has an IC50 of 71 nM (MCL1; ligand displacement, FP).
For `CC(C)[C@H](NC(=O)[C@H]1NC(=O)[C@H](CO)NC(=O)[C@H](CC(N)=O)NC(=O)[C@@H](N)Cc2c[nH]c3cc(ccc23)C1C(N)=O)C(=O)N[C@H]1Cc2cn(cn2)C(c2ccc(O)cc2)[C@@H](C(=O)N[C@@H](CCCNC(=N)N)C(=O)N[C@@H](Cc2ccccc2)C(=O)O)NC(=O)[C@H](CO)NC1=O` (stereo partly shown), the IC50 was 16 ± 2 nM (bamA, in BAM complex (Escherichia coli, UniProt P0A940); inhibitor).
`CC[C@H](C)[C@H](NC(=O)[C@H](CCCCN)NC(=O)[C@H](CCC(N)=O)NC(=O)[C@H](CC(C)C)NC(=O)[C@@H](NC(=O)CNC(=O)[C@H](CCC(N)=O)NC(=O)[C@H](CCSC)NC(=O)[C@H](CC(C)C)NC(=O)[C@H](CC(=O)O)NC(=O)[C@H](CCCNC(=N)N)NC(=O)[C@H](CC(C)C)NC(=O)[C@H](C)NC(=O)[C@H](CCCNC(=N)N)NC(=O)[C@@H](NC(=O)[C@@H](NC(=O)[C@@H](N)[C@@H](C)O)C(C)C)[C@@H](C)O)[C@@H](C)CC)C(=O)O` gave an IC50 of 4320 nM (Type 3 secretion system chaperone PscG, with PscE (pscG, Pseudomonas aeruginosa, UniProt P95435); binding, fluorescence polarization; with: fluorescent tracer of compound).
For `CC(C)[C@H](NC(=O)c1ccc(CCc2nc3c(c(=O)[nH]2)CCC3)cc1)C(=O)NC1COC1`, the IC50 was greater than 5000 nM (72 kDa type IV collagenase (MMP2, Homo sapiens, UniProt P08253); enzyme activity, inhibitor).
With `CC1C(=NOCc2cc(-c3ccc(Cl)cc3)no2)C(C)C(c2ccc(Br)cc2)OC1c1ccc(Br)cc1` (stereo not shown) the IC50 was 13000 nM (gyrA/gyrB).
The IC50 of `CC(C)[C@H](NC(=O)N[C@H](C(=O)N[C@H]1/C=C/CCNC(=O)/C=C/[C@H](C(C)C)NC1=O)C(C)C)C(=O)O` is reported as 670 nM (Proteasome subunit beta type-10, trypsin-like site (Homo sapiens, UniProt P40306); enzyme activity, inhibitor, fluorescence).
With `O=C1C(O)=C(Nc2ccc(F)cc2)C(=O)c2ccccc21` the IC50 was 470 nM (Dihydroorotate dehydrogenase (quinone), mitochondrial (DHODH, Homo sapiens, UniProt Q02127); enzyme activity, inhibitor, absorbance).
The IC50 of `CC(=O)N[C@@H](Cc1ccccc1)C(=O)N[C@@H](CC(C)C)C(=O)N[C@H](C(=O)N[C@@H](CC(=O)O)C(=O)CCl)[C@@H](C)O` is reported as greater than 100000 nM (Caspase-4 (CASP4, Homo sapiens, UniProt P49662); enzyme activity, inhibitor, fluorescence).
`CCc1n[nH]c(NC(=O)c2ccc3c(c2)nnn3C)n1` has an IC50 of greater than 100000 nM (Procathepsin L (CTSL, Homo sapiens, UniProt P07711); enzyme activity, inhibitor, FRET).
`CC[C@H](C)[C@H](NC(C)=O)C(=O)N[C@@H](C)C(=O)N[C@@H](CCC(=O)O)C(=O)N[C@@H](CCC(N)=O)C(=O)N[C@@H](CC(C)C)C(=O)N[C@@H](CCCNC(=N)N)C(=O)N[C@@H](CCCNC(=N)N)C(=O)N[C@@H](Cc1ccc(OS(=O)(=O)F)cc1)C(=O)NCC(=O)N[C@@H](CC(=O)O)C(=O)N[C@@H](CCCNC(=N)N)C(=O)N[C@@H](Cc1ccccc1)C(N)=O` gave an IC50 of greater than 100000 nM (MCL1; BIM BH3 peptide binding, inhibitor, DELFIA displacement; 2 h preincubation).
The IC50 of `COc1cc(-c2nn(C3CCC(N4CCN(C)CC4)CC3)c3ncnc(N)c23)ccc1NC(=O)OCc1ccccc1` (stereo not shown) is reported as 790 nM (LIM domain kinase 2 (LIMK2, Homo sapiens, UniProt P53671); enzyme activity, inhibitor).
With `CCCCCCCCCC(=O)N[C@@H](CCCNC(=N)N)C(=O)N[C@H](C(=O)N[C@@H](CCCCN)C(=O)N[C@@H](CCCNC(=N)N)C(=O)CCl)C(C)C` the IC50 was 0.794 nM (Furin (FURIN, Homo sapiens, UniProt P09958); enzyme activity, inhibitor).
For `Cc1cc(S(=O)(=O)Nc2ncccn2)c(F)cc1N(C)C1CCN([C@H](C)c2ccccc2)CC1`, the IC50 was greater than 100000 nM (Sodium channel protein type 8 subunit alpha (SCN8A, Homo sapiens, UniProt Q9UQD0); ion current, inhibitor, automated patch clamp; resting state, held at -120 mV).
The IC50 of `O=C1c2c(ccc(O)c2O)CN1Cc1cccc(Cl)c1F` is reported as 2200 ± 300 nM (Gag-Pol polyprotein, integrase (gag-pol, Human immunodeficiency virus 1, UniProt P12497); strand transfer, inhibitor, gel-based; recombinant wild-type integrase).
The IC50 of `COc1c(OCCOCCOCCOCCOCCOCCOCCOCCOc2cccc(C(=O)C3CCN(CCc4ccc(F)cc4)CC3)c2OC)cccc1C(=O)C1CCN(CCc2ccc(F)cc2)CC1` is reported as 192 nM (5-hydroxytryptamine receptor 2A (HTR2A, Homo sapiens, UniProt P28223); phosphorylation in cells, antagonist).
For `N[C@H](C(=O)N1CCCC1)C1CCN(c2nccc3c(-c4ncc(Cl)cc4Cl)cccc23)CC1`, the IC50 was 28.5 nM (Protein-arginine deiminase type-2 (PADI2, Homo sapiens, UniProt Q9Y2J8); enzyme activity, GDH-coupled; with: Ca2+ 0.25 mM).
The IC50 of `CNCP(C)(=O)O` is reported as 884000 nM (Urease; enzyme activity, inhibitor, absorbance; pH 7).
`NC(=O)CCCCC=C1C(=O)OC1CCc1ccccc1` (stereo not shown) gave an IC50 of greater than 10000 nM (Phosphatidylserine lipase ABHD16A (Homo sapiens, UniProt O95870); enzyme activity, inhibitor).
`Cc1cc(Nc2cc(CN(C)C)cc(NC(=O)c3cc(CN(C)C)cc(Nc4ccnc5ccccc45)c3)c2)nc(N)n1` gave an IC50 of 300 to 600 nM (NEIL2 (Homo sapiens, UniProt Q969S2); enzyme activity, inhibitor).
With `O=C(O)c1cc[c]([Hg][Cl])cc1` the IC50 was 2000 nM (Trypanothione synthetase (Trypanosoma brucei brucei, UniProt Q586P2); enzyme activity, BIOMOL Green phosphate release; 1 h preincubation).
`O=C(NC12CC3CC(CC(C3)C1)C2)c1cc2cc(Cl)ccc2[nH]1` gave an IC50 of greater than 50000 nM (Cytochrome P450 2D6 (CYP2D6, Homo sapiens, UniProt P10635); inhibitor).
`CC(=O)CCC1C(=O)NC(C(C)C)C(=O)NC(Cc2cccc(O)c2)C(=O)N2CCCC(N2)C(=O)OC(C(C)=CC=CC(=O)N2CCCCO2)CC=CC=CC(O)C(C)C1O` (stereo not shown) gave an IC50 of 11000 nM (Solute carrier organic anion transporter family member 1B1 (SLCO1B1, Homo sapiens, UniProt Q9Y6L6); transporter uptake, inhibitor; CHO; pH 7.3).

For quick reference, copied from above:
For `N#Cc1nccc(N2CCNCC2)n1`, the IC50 was 91900 nM (Phosphatidylinositol 3,4,5-trisphosphate 5-phosphatase 1, Ptase-C2 domains (INPP5D, Homo sapiens, UniProt Q92835); enzyme activity, inhibitor).
With `COc1ccc(F)cc1S(=O)(=O)Nc1cnc2c(c1)C(=O)NCCO2` the IC50 was greater than 100000 nM (Cytochrome P450 2B6 (CYP2B6, Homo sapiens, UniProt P20813); enzyme activity, inhibitor; human, liver microsomes; with preincubation).
For `CCCC[C@H](NC(=O)[C@H](C)NC(=O)[C@H](CCC(=O)O)NC(=O)[C@H](Cc1ccccc1)NC[C@H](CC(C)C)NC(=O)[C@H](Cc1ccccc1)NC(=O)[C@@H](N)CCCNC(=N)N)C(=O)O`, the IC50 was greater than 1000 nM (Gag-Pol polyprotein, protease (gag-pol, Human immunodeficiency virus 1, UniProt P12497); enzyme activity, inhibitor, FRET; NL4-3 wild type).
`CC[C@H](C)[C@H](NC(=O)[C@H](CCCNC(=N)N)NC(=O)[C@H](CCCNC(=N)N)NC(=O)[C@@H]1CCCN1C(=O)[C@@H]1CCCN1C(=O)[C@H](CCCNC(=N)N)NC(=O)[C@@H]1CCCN1C(=O)[C@H](CCCNC(=N)N)NC(=O)[C@@H]1CCCN1C(=O)[C@H](CC(C)C)NC(=O)[C@H](Cc1ccc(O)cc1)NC(=O)[C@@H]1CCCN1C(=O)[C@@H]1CCCN1C(=O)[C@H](CCCCN)NC(=O)[C@H](CC(=O)O)NC(=O)[C@@H](N)C(C)C)C(=O)N[C@@H](Cc1ccc(O)cc1)C(=O)N[C@@H](CC(N)=O)C(=O)N[C@@H](CCCNC(=N)N)C(=O)N1CCN(c2cc3c(cc2F)c(=O)c(C(N)=O)cn3C2CC2)CC1` gave an IC50 of 2500 nM (gyrA/gyrB; enzyme activity, inhibitor).
